# Assay results from different studies.
# Every numbered part comes from another study and shows a few of its results, in no order. “And” joins repeats or separate records; there may be more than shown.
# Sequence of UniProt P49841 (whole entry, looked up): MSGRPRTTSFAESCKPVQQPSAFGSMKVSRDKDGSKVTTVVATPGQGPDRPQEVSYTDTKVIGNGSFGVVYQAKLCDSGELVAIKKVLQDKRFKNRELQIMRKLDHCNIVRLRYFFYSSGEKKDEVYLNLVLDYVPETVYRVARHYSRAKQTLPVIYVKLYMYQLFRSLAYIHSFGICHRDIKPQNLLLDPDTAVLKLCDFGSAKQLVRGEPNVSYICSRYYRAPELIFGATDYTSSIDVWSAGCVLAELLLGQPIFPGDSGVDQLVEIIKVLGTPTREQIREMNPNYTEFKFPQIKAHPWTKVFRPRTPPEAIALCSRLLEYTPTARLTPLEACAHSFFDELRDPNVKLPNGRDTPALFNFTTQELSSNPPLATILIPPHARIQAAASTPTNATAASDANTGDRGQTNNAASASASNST
# Sequence of UniProt P28482 (whole entry, looked up): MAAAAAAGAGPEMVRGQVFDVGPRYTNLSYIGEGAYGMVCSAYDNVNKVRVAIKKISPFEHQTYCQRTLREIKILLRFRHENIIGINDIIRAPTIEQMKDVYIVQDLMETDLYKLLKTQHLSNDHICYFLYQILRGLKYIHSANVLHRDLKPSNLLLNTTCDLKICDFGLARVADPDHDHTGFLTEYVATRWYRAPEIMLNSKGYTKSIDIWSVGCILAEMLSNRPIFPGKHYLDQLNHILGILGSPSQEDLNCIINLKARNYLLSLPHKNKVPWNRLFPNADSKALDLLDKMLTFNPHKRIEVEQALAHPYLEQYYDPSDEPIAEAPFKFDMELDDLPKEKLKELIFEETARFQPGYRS
# Sequence of UniProt P49840 (whole entry, looked up): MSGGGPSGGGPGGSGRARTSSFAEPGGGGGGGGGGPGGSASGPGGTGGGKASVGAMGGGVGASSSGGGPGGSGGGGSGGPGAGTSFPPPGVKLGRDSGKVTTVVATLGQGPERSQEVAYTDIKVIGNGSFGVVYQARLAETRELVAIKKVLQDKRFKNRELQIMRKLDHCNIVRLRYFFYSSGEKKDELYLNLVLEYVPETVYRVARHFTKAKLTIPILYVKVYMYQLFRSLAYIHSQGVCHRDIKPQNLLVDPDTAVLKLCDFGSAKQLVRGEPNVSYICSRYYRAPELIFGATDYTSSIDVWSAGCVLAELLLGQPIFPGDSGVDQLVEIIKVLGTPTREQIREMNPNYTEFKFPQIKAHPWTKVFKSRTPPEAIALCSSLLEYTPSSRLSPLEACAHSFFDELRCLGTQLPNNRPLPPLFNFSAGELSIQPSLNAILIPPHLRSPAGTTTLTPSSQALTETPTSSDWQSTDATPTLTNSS

# Study 1 — effect on: enzyme activity; mode: inhibitor; concentration: 10 µM
# Target: Calcium/calmodulin-dependent protein kinase type II subunit alpha (CAMK2A, Homo sapiens, UniProt Q9UQM7)
# Sequence of UniProt Q9UQM7 (whole entry, looked up): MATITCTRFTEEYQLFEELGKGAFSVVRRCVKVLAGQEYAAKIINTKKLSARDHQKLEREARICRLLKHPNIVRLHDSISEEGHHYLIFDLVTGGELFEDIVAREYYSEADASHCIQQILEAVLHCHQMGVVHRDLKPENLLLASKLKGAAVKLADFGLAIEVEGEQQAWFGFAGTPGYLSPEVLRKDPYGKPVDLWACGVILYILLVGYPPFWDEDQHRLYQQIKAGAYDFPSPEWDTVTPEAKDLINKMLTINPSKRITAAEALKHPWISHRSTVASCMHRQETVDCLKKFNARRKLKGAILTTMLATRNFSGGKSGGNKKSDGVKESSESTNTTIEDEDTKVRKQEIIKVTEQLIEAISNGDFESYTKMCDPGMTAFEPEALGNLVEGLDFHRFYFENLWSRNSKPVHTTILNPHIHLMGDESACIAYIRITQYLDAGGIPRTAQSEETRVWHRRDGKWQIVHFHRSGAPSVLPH
SMILES,inhibition
C[N+](C)(C)CC(O)CC(=O)O (racemic),-8%
O=C(OCCOCCO)c1ccccc1Nc1cccc(C(F)(F)F)c1,-8%
CC(C)=CCc1cc(-c2coc3cc(O)ccc3c2=O)ccc1O,-34%
C=CC[N+]1([C@H]2C[C@H]3[C@@H]4CC[C@H]5C[C@H](OC(C)=O)[C@@H](N6CCCCC6)C[C@]5(C)[C@H]4CC[C@]3(C)[C@H]2OC(=O)CC)CCCCC1,3%
CC(C)CN(C[C@@H](O)[C@H](Cc1ccccc1)NC(=O)O[C@H]1CO[C@H]2OCC[C@H]21)S(=O)(=O)c1ccc(N)cc1,6%
Cc1[nH]ccc2c1[nH]c1cc(=O)ccc12,0%
COc1c(O)c2c(=O)cc(OC)c3c4c(OC)cc(=O)c5c(O)c(OC)c6c(c(c1C[C@@](C)(O)[C@H]6C(C)=O)c23)c54,52%
CC(C)C1=CC(=O)[C@@](C)([C@H]2[C@H](O)C[C@@]3(C)[C@@H]4CC=C5[C@@H](CC[C@@H](O[C@@H]6O[C@H](CO)[C@@H](O)[C@H](O)[C@H]6O[C@@H]6O[C@@H](C)[C@H](O)[C@@H](O)[C@H]6O)C5(C)C)[C@]4(C)C(=O)C[C@]23C)O1,-14%
O=C1CCCCCCCCCCCCCCO1,-15%
OC[C@@H](O)[C@@H](O[C@@H]1O[C@H](CO)[C@H](O)[C@H](O)[C@H]1O)[C@H](O)[C@@H](O)CO,-2%
C[C@H](O)CO,-16%
O=C(O)c1ccc(C(=O)O)o1,-6%
S=c1nc[nH]c2nc[nH]c12,-0.07% and 0.06%
O=C(/C=C/c1ccc(O)cc1)OC[C@H]1O[C@@H](Oc2c(-c3ccc(O)cc3)oc3cc(O)cc(O)c3c2=O)[C@H](O)[C@@H](O)[C@@H]1O,-0.2% and -0.74%
CC(=O)O[C@]12CCC(C)=CC[C@]13CC[C@H]2[C@@](C)(/C=C/C=C(\C)C(=O)O)OC3=O,-4%
C=C(C)[C@@H]1CC[C@]2(C(=O)O)CC[C@]3(C)[C@H](CC[C@@H]4[C@@]5(C)CC[C@H](O)C(C)(C)[C@@H]5CC[C@]43C)[C@@H]12,-84%
CCCC(=O)Nc1ccc(OCC(O)CNC(C)C)c(C(C)=O)c1 (centres unmarked),1%

# Study 2
# SMILES: C[C@@H](NC(=O)Nc1cc2[nH]ncc2c(CO)n1)c1ccccc1
# SGK1: Serine/threonine-protein kinase Sgk1 (SGK1, Homo sapiens, UniProt O00141)
# Sequence of UniProt O00141 (whole entry, looked up): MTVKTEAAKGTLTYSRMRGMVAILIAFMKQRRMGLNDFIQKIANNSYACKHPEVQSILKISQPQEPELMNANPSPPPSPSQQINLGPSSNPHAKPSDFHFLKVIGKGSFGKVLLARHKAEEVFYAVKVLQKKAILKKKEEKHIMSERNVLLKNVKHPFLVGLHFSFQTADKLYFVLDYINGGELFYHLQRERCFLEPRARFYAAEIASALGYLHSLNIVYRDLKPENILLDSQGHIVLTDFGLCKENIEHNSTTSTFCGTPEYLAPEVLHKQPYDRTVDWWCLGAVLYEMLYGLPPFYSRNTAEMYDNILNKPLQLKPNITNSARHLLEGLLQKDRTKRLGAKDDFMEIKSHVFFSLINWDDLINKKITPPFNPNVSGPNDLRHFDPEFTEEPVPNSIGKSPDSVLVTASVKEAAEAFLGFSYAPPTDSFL
target,assay,test system,EC50
"Glycogen synthase kinase-3 beta (GSK3B, Homo sapiens, UniProt P49841)","target engagement, NanoBRET",live cells,4.71 µM and 9.28 µM and 1.44 µM
"Mitogen-activated protein kinase 1 (MAPK1, Homo sapiens, UniProt P28482)","target engagement, NanoBRET",live cells,0.122 µM and 0.117 µM and 0.048 µM
"Glycogen synthase kinase-3 alpha (GSK3A, Homo sapiens, UniProt P49840)","target engagement in cells, BRET",,13 µM
SGK1,"target engagement, NanoBRET",live cells,> 50 µM
SGK1,"target engagement in cells, BRET",,> 50 µM

# Study 3 — effect on: enzyme activity; mode: inhibitor; concentration: 0.5 µM; relative to: control
# Target: Maternal embryonic leucine zipper kinase (MELK, Homo sapiens, UniProt Q14680)
# Sequence of UniProt Q14680 (whole entry, looked up): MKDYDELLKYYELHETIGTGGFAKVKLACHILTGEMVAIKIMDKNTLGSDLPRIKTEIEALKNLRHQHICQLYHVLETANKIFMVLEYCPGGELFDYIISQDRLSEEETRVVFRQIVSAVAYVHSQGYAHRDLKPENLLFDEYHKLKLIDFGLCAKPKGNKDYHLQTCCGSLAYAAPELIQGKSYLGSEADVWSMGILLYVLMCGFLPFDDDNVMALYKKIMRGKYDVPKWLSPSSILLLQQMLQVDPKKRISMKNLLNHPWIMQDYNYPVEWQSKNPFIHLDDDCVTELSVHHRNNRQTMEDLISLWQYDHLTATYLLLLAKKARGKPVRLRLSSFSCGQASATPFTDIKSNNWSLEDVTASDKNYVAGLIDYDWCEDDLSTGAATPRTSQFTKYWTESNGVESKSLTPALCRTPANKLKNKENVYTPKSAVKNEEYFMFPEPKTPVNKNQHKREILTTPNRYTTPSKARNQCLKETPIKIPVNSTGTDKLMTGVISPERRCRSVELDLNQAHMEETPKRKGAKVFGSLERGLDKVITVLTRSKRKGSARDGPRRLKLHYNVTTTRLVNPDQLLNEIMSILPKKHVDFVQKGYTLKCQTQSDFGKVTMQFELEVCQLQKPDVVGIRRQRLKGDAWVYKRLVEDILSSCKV
Compound,remaining activity [%]
O=C(c1cc2cc(O)ccc2[nH]1)c1cc2cc(O)ccc2[nH]1,49.2
c1ccc2c(-c3ccncc3)c[nH]c2c1,102
N#Cc1cnc2cnc(NCc3cccnc3)cc2c1Nc1ccc(F)c(Cl)c1,88
O=C1NC(=O)c2c1c1c3ccccc3[nH]c1n1cncc21,32.6
Oc1cccc(-c2nc(N3CCOCC3)c3oc4ncccc4c3n2)c1,75.5
c1ccc(-c2n[nH]c3c2oc2ccccc23)cc1,77
CCCCc1c(-c2ccc(OC)cc2)[nH]c2nccnc12,84.4
CN(C)S(=O)(=O)c1ccc2c(c1)/C(=C/c1cc3c([nH]1)CCCC3)C(=O)N2,89.1
COc1ccc2c(c1)c(C1=C(c3c[nH]c4ccccc34)C(=O)NC1=O)cn2CCCN(C)C,70.7
O=C1NC(=O)c2c1c1c3ccccc3[nH]c1c1[nH]c3cc(Br)ccc3c21,46.6
O=c1cc(N2CCOCC2)oc2c(-c3ccccc3)cccc12,91.3
COc1cccc(-c2cc(=O)c3ccccc3o2)c1N,94
CCCNC(=O)Nc1ccc(Oc2ncnc3cc(OC)c(OC)cc23)cc1Cl,86.8
CN1CCN(c2ccc3nc(-c4c(N)c5c(F)cccc5[nH]c4=O)[nH]c3c2)CC1,7.72
O=C1Nc2ccc(Br)cc2/C1=C/c1cc2c([nH]1)CCCC2,75.6
O=Nc1c(-c2c(O)[nH]c3cc(Br)ccc23)[nH]c2ccccc12,43.5
O=C1Nc2ccccc2/C1=C\c1c(Cl)[nH]c2ccccc12,85.7
Cc1cc(Nc2cc(N3CCN(C)CC3)nc(Sc3ccc(NC(=O)C4CC4)cc3)n2)[nH]n1,53.4
O=C1Cc2c([nH]c3ccc(Br)cc23)-c2ccccc2N1,74.8
Cc1ccc(S(=O)(=O)/C=C/C#N)cc1,92

# Single results of other studies — method: SPR; concentration: concentration not given
# Target: WD repeat-containing protein 5 (WDR5, Homo sapiens, UniProt P61964)
SMILES,binding [%]
C[C@@H]1CN(c2ccc(-c3cc(C(=O)NCCOCCOCCOCCOCCOCCOCCNC(=O)/C=C/c4[nH]cc(C(=O)N[C@@H](CC(N)=O)c5ccc(F)c(Cl)c5)c4-c4ccc(Cl)cc4F)ccc3F)cc2NC(=O)c2ccc(F)cc2C(F)(F)F)C[C@H](C)N1C,20.7
C[C@@H]1CN(c2ccc(-c3cc(C(=O)NCCOCCOCCOCCOCCNC(=O)/C=C/c4[nH]cc(C(=O)N[C@@H](CC(N)=O)c5ccc(F)c(Cl)c5)c4-c4ccc(Cl)cc4F)ccc3F)cc2NC(=O)c2c[nH]c(=O)cc2C(F)(F)F)C[C@H](C)N1C,43.1

# Excerpt of the above (study 1):
SMILES,inhibition
C[N+](C)(C)CC(O)CC(=O)O (racemic),-8%
C=C(C)[C@@H]1CC[C@]2(C(=O)O)CC[C@]3(C)[C@H](CC[C@@H]4[C@@]5(C)CC[C@H](O)C(C)(C)[C@@H]5CC[C@]43C)[C@@H]12,-84%
COc1c(O)c2c(=O)cc(OC)c3c4c(OC)cc(=O)c5c(O)c(OC)c6c(c(c1C[C@@](C)(O)[C@H]6C(C)=O)c23)c54,52%
CC(C)CN(C[C@@H](O)[C@H](Cc1ccccc1)NC(=O)O[C@H]1CO[C@H]2OCC[C@H]21)S(=O)(=O)c1ccc(N)cc1,6%
O=C(OCCOCCO)c1ccccc1Nc1cccc(C(F)(F)F)c1,-8%
CC(=O)O[C@]12CCC(C)=CC[C@]13CC[C@H]2[C@@](C)(/C=C/C=C(\C)C(=O)O)OC3=O,-4%
